Measured values of several laboratories.
Every numbered part comes from another study and shows a few of its results, in no order.

Study 1
Target: Sal-like protein 4, full length isoform A (SALL4, Homo sapiens, UniProt Q9UJQ4, residues 1-1053)
UniProt Q9UJQ4, sequence (whole entry, looked up): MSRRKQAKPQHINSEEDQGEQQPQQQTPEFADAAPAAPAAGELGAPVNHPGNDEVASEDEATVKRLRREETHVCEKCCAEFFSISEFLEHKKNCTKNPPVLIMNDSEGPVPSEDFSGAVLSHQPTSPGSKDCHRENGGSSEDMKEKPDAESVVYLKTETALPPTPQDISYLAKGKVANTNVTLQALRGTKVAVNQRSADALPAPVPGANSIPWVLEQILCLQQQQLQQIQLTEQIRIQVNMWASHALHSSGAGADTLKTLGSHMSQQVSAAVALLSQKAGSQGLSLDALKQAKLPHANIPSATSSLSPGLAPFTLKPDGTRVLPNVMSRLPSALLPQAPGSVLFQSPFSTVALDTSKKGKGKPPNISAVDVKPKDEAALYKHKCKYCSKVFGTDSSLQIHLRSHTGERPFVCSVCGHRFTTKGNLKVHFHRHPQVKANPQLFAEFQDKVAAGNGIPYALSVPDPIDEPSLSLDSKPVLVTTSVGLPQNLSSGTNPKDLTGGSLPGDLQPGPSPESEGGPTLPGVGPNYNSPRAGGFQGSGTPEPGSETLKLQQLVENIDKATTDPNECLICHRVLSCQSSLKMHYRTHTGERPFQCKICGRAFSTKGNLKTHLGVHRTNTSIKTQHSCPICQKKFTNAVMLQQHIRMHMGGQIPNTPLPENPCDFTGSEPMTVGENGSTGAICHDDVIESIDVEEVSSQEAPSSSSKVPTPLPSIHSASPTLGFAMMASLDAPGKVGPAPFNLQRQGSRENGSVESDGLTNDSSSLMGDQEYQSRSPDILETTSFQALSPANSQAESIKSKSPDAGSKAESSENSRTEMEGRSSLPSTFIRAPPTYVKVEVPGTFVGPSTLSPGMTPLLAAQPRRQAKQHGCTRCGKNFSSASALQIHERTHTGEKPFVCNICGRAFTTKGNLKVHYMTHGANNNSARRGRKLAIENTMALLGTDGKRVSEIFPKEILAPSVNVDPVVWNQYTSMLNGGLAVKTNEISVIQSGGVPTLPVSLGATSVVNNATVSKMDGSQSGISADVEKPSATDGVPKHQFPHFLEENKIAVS
Technique: universal PBM
Form: double-stranded DNA, one strand shown
Matrix: in vitro
Concentration: 600 nM
Notes: 8-mer, flanks averaged, mean of replicates
Reading: higher = stronger binding
Strand	E-score
GAAGGTGA	-0.0463
ATTCCGTG	0.0304
CCAGCAAC	-0.173
ACCCAATA	0.0748
CGGCTCAA	-0.0924
GACATCCA	0.0161
GGCCTCCA	-0.193
ACCAAAGC	-0.126
CAGAAACA	0.0791
GTGCCGAA	-0.158
ACCGCCCG	-0.31
AAATTCAT	0.34
AATCATCG	0.0784
GTCAGTTA	0.0729
GCCTTGTA	0.0691
GAGAGCTC	-0.195

Study 2
Target: Hepatocyte nuclear factor 3-alpha (Foxa1, Mus musculus, UniProt P35582, residues 1-468, full length assumed)
Technique: EMSA with sequencing
Form: double-stranded DNA, one strand shown
Matrix: in vitro
Concentration: 10 and 20 nM
Notes: whole designed probe, mean of two concentrations, ends assumed
Relative to: negative control set to 0
Reading: higher = stronger binding
Constant ends, left off below: GTGAGCGGTGCCCATTGATGGGGAAC … TTTCACTGGGATCGTGGGGAC
Construct (chain): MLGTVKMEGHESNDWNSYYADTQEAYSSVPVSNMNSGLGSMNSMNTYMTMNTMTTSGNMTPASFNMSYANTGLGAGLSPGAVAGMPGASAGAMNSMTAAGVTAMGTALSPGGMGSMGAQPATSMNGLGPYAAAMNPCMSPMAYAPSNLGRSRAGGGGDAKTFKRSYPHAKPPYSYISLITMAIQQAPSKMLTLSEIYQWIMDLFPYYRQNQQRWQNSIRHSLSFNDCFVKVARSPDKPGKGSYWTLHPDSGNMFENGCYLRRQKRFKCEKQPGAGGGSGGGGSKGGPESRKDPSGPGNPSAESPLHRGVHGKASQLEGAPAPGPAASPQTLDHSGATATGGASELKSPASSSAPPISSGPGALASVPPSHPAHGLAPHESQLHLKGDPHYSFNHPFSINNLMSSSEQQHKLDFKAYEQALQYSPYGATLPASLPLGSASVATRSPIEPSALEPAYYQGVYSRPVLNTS
Strand	normalised bound fraction
AACATATAACTCTTTGTTTCAGGGATTATTTGATCAGCCTGTTGGCCAGTGGTATTATGGCCACTGAATTTTTTAAAAATGCAAAATGTACATGTTTACTTAGTTGTTCTTACACTTTGCTCCATGCCTTCCAACAATTTCTTCTTTAGTTGTTTCTTTTCTTATTTTGTGGAAACTTGAAATTTAATGAGGA	0.46 ratio
CTCAGCAAGGCTTTAAGGTCCTTAAAACATGACCCACACTAACCAGCCTTAGGTTTCCACTGTCTCATAGCTCAGTTTCCACCAAAATGGGGATATTTACCCAGAGATCTGTGCTCAGTTGGCTCTCTGCTTCTTGACTAGCTTCATTTACTGCCCATTGAAATTCTAACCCCAGGTCAAAAGCCATCTTTTC	0.00884 ratio
CCAGGTATTATCAGAGGGAGACAGGCAGGGAGCTCCCCAGTGAAGGCTCTAGAGCATCCCATAAAAGGATGAAGAGAGAGACAATCCACAAATGCAAATATCTATTCAATTTTCATTCTATTATAGTTATATTCATAGTTAATACTGTATGAAAATGTTTATTATAGAGTCACCTGCAAGAGCAAAAATAAGA	0.167 ratio
AGTCATAAAAGCAAAATAATACTGCCAACAAAGAAAATTTTACCTGGAAAAATTTACCTCTAGAATAAGGATAAAAAATAAAGACTTTATAAGGTAAACAAAAGCTGTCAGTCTTTGTCACCATGTGTATAGTTCTATAAGAAATGGTAAAGTAAATATATACACAGATCTACAATTCTCTACTATAATAATA	0.556 ratio
ATCTTCCCCCTCTTCCTTGCCCCACCAGCTCACCTTCCCGGGTATCTGCAAATAAGTATTTATTTTCAAGCCGGCATTCGTTAACCCTCTTCTGGCGCAAACTGCTGTTTGCTCTGGATCTAACATGGTCCTTTGGCGACGCCAGGCTCCGGGAGAGCAAAGCACCGTGTCAGGGCCATGATCCGGGGTGGCC	0.204 ratio
GTGATCCTCCTGTGTCAGCCTTCCAAGGTGCTGGGATTACAGGCATGCACCCCTGGCCTCTGAAGCATTCCTTGAGTCAGATATGCTTGGTGTTGTTTACTCAACCTGAGTCACCTTTTGCTTCCCTGTTCACCATTACCTACTGCCTTACCCTGAAAGGGGAGGTACTTACTATATATACTCAGATCATAAA	0.388 ratio
AAATCTAAGAATATTTTGTTTCAGGCTAGAAAGATATCTCTTTACTTGACTTTTTTCAGACCATGTTGGCCATTGTCTAATTATTTAGTACAAAGTAATCTGAAATAGAGCAGAGTAGAGCTCATTCTCCCCAAGTTGAAGCTTATCACACTCCAATGTGTGCCCTCTTAAAGCATAAAGCATGTCTCACTTT	-0.0252 ratio
AACCCAGACAGTGACATCTTACAGGGGACTTCTTCTTCTTCCCCCATTGTATGTCTCCTCCTTTTATGTTTATCTAATCTATTCACATAACTATGTAAACAAGTACATTTACTAAAGTTTCTTCATGTTCATAAAATAATAACATACAGAATTATAAAAGTAGAAAGGTAAGGCCAAGCATGGGGGCTCACGC	0.487 ratio

Study 3
Target: RNA binding protein fox-1 homolog 2, RRM domain, GST-SBP tag (RBFOX2, Homo sapiens, UniProt O43251-10, residues 100-194)
Technique: RNA Bind-n-Seq
Form: RNA
Matrix: in vitro
Concentration: 365 nM
Notes: natural RNA segment, single round, ends assumed
Relative to: no-protein control
Reading: higher = stronger binding
Constant ends, left off below: GGGAGUUCUACAGUCCGACGAUC … UGGAAUUCUCGGGUGCCAA
Construct (chain): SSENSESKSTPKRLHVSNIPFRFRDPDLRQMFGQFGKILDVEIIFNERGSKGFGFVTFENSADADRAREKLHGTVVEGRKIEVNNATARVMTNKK
Strand	RBNS enrichment (R)
UUGGCUGUGUUUUAGACAGCUCCAGAAUAUAUUGUUCAGCGCAGUAAAAUAUAUUUGGAAUUUGAUGAACCAAAAAUGUGAUUUCAGAUGACUAUUUUGUGACUUUCUUA	0.46
ACUGCCUACAUUUGCGUUGCUUUCUACAUAGAGACUUGUAUAAUAGUAUUAAUAGUAGCUCAUUCUCUCUAAAAAUUUACUGCCCACUGAUAGGAUGUUUUGUUUCCUUG	0.501
AGCCAUGGCCACUCCUGUGCCGGGGAAGACAUCACAUACCUUCAGCACUUCUCACAAUGUAACUGCUUUAGUCAUAUUAACCUGAAGUUGCAGUUUAGACACAUGUUUUU	0.233
CCAAGCGAUGGCCGCUCUCUCCUCUCCCCUCCUCAGAGGGGGCAGAUAGAAACUGGGACGGAUUCAAGUCACAUGCACGCGGAUAGCAGUAAGCCACACACCUGCCACUU	0.75
GGUACCAAAGCACUGAGUCUAAUUUACCUAUUAAGGGAGACUCUUUAAAAUCAACUUUAUAACUAAUUCAUACUAUAAGACAGAUAAUAGCUAAAGUUUUGGAAUAAUUU	0.463
GAGGUUCAGGAUUGCUAAGCGAGUGCUCUACCACUGAUGUGCAUCCUUAGUCCUUGUUUGCUUUCUAAACCAAACUGGGAACACAUACAACAUUCAUCAUUUUACAUCCA	0.465
CCUUUCCCCUCCCCUCUCUUCCUCCCCUCUGCACUUUGUUUACUUGUUUUGCACAGACGUGGGCCUGGGCCUUCUCAGCAGCCGCCUUCUAGUUGGGGGCUAGUCGCUGA	1.99
UAGGGAUCAUUAGGUUCUGGUUUGAACAUUCUGAAUGUGAACAAAAUGAAAUAGUAGUUAAGAGGUGUUUUCCCACUGUGUUUAAAGAGAACACUAGUAAUUCUGGUUUU	1.51
AGAGGGAUUAAGCCCACACCCUGGCUUCCAUUCCAUAUCAGGUACAGGAUUUGAUGUUAUUAACAUUUGUCGUCAUACCUCAUAAGUCGGUCCCUGCCUUGUCUGUCUAG	0.29
UUCUCUCAGUGGCACAUUUUGCUUUUUCUGAGCCCCAAAUACAUUGCCUGGGCAUGAACAUUGUUACCGUAAAUUGCACAUGGUCAUGGACUGAAUUAUGUGACUUUAAA	0.906
UGCUGGUAGCAUGCUGCAGCUUCUGUGUUAAAGGUCCUCUGGAGCUCGUGUAAGACAGGAAGAACACUUUCUCUGUAGUUUCUUUCUUUUCAUUUAUAAUUUACAAAAGU	44.4
UGUUAUUUUUAAAAUGAAUAAUUGAUUUCUUGAUAGGUGUUUAAUAUUUCUUCCCUCACUGCUGAUUCUUAGAUAGAAACCAUUCUUUAUAUUUGAUAGACUGCUUUCAG	0.723

Study 4
Target: Histone acetyltransferase KAT6A, both winged helices, GST fusion (KAT6A, Homo sapiens, UniProt Q92794, residues 1-181)
Technique: protein binding microarray
Form: double-stranded DNA, one strand shown
Matrix: in vitro
Concentration: not given
Notes: 8-mer, flanks averaged, mean of 2 arrays, mostly near background
Relative to: not given
Reading: higher = stronger binding
Residues (chain): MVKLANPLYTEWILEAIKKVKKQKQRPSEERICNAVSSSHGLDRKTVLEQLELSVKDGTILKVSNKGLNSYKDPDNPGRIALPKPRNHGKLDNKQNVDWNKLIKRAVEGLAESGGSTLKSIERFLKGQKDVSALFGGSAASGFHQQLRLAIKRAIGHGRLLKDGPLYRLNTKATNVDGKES
Strand	E-score
ACCGCCAA	0.0368
CTGAACAG	-0.181
AATAACGA	-0.00415
CCCGGTTC	0.07
GTTTGCTA	-0.0608
GTGTTCTA	0.0557
AACTAGGA	-0.117
CGCCCAGA	-0.0101
CGCCACGA	0.155
ATACCCTG	-0.121
GAGGTGCC	-0.111
GAGGCCGA	0.0838
ATAACTGA	-0.00588
CCGTTACA	0.177
GTGTAGCA	-0.0794
TCCGGTCA	0.0671
ACGGGACC	0.233
ATGTTTCC	0.146
AAATACGC	0.185
CGGATAAG	0.169
AACATATC	0.0428
ACAATTCG	0.0209
AGGGTGGC	-0.125
AGATAGCG	0.0554
AATTACCT	-0.064

Study 5
Target: Centromere-binding protein 1, full length, N-terminal tag (CBF1, Saccharomyces cerevisiae, UniProt P17106, residues 1-351)
UniProt P17106, sequence (whole entry, looked up): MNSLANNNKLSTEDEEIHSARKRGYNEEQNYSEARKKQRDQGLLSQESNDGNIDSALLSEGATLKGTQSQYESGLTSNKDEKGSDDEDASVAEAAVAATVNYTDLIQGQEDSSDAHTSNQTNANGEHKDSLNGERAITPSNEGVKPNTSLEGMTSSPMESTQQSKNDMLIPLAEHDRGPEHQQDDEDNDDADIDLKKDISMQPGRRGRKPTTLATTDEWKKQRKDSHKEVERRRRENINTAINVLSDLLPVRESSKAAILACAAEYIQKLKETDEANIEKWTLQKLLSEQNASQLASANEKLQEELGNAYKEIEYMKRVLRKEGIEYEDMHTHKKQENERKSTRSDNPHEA
Technique: protein-binding microarray
Form: double-stranded DNA, one strand shown
Matrix: in vitro
Concentration: 0.8 µM
Notes: whole 60-bp probe, no competitor
Reading: higher = stronger binding
Constant ends, left off below: … GTCTTGATTCGCTTGACGCTGCTG
Strand	fluorescence intensity [a.u.]
CCTAACTACTATATTCCCGTCACATAGCTTCGTACA	543
CCTAACTACTATAGTCACATTAGATAGCTTCGTACA	543
GAATGATTCCTTAATGTGATGATGCAGGATTAGTAG	587
CTAAGGCTTTGCATACACGTGACTTATATTTGGTTC	17500
CTATGAAAGTTTGCGAACGTGAAGTAAAACTGCTTC	559
GAAGTTAGATAGGGTGGTGTGTGGTGTGTGGGTTAG	529
GAATAGTCCGTATGTCATGTGCTACGGCAAGCGTAG	1800
GAATTTATCATTTTCCTGATGACCTTTGACTGCTAG	538
GAATCTTATATATTCTACGTGGGAGCTCGAAAATAG	487
CTACCAAAGAAAACTAACGTGGACCGCTTTTAGTTC	554
GAAATGTGAACACGTCATCATAGACGGTTGTTGTAG	590
CTATCAAGAAGCCCGCATGTGCTACTTACGTTTTTC	545
CTATCATATCAAATTCACATCAGACTTCAATTTTTC	544
GAACCTAAAAATGTTCACGTGTGACTGCTCCATTAG	3810
GAAGGAAATCAGTTGCATGTGCCCAAGGAATGGTAG	1050
CTAATTAGAAATAGCGACATCATGACCAGCTTATTC	648
CTACAATTATCAAACCACATGAAACTTTTTTAATTC	672
CTAAATATGTACGGTCACGCCAATTCTTTTTCTTTC	847
CTATAAAATCCAACGCACGATGCTAGAGATAAATTC	512
CTACAGTGTACTCTTCACGATATTTTGCATTTTTTC	547
CCTAACTACTATAAAGGTATCACATAGCTTCGTACA	558
CTATGTGCACAAGAATACGTGTGTGTGCGTAAGTTC	520
GAACCGAGAACGCGTAGCGTGATGATAATGGTGTAG	629
CTACAAATAATTAAGCATGTGGAAAAAGAAGGGTTC	659
CTAATTATCTTCAATGTCATCACGTACTTAATTTTC	785

Some of these lines once more (study 1):
Strand	E-score
CCAGCAAC	-0.173
ACCAAAGC	-0.126
CAGAAACA	0.0791
GGCCTCCA	-0.193
CGGCTCAA	-0.0924
GTCAGTTA	0.0729
GAAGGTGA	-0.0463
GACATCCA	0.0161
GAGAGCTC	-0.195
GCCTTGTA	0.0691
ACCGCCCG	-0.31
GTGCCGAA	-0.158
AATCATCG	0.0784
ATTCCGTG	0.0304
